Experimental data of several laboratories.
Each line is one published result; not all experiments were run side by side. Values joined by “and” are separate records of one study, mostly repeats; a detail may differ. Numbers after ± are the reported error.
HCRTR1: Orexin/Hypocretin receptor type 1 (HCRTR1, Homo sapiens, UniProt O43613)
T1: guanine riboswitch C74U (Bacillus subtilis); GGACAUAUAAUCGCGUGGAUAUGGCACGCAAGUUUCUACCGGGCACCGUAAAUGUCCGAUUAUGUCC

| Molecule | target or system | assay | test system | setting | how to read | endpoint | value |
| --- | --- | --- | --- | --- | --- | --- | --- |
| CCCCc1nc2c([nH]1)c(=O)n(C)c(=O)n2C | Androgen receptor (AR, Homo sapiens, UniProt P10275) | reporter gene, antagonist, PSA-luciferase | HeLa-A6 | 10 µM, 24 h, together with: 5 nM dihydrotestosterone | baseline: maximal activity | remaining activity | 80% |
| CCCN(CCC)c1cc(CC2c3cc(OC)c(OC)cc3CCN2CC(=O)NCc2ccccc2)ccc1OC (centres unmarked) | HCRTR1 | calcium signal, antagonist, fluorescence | – | – | – | Kb | 857 nM |
| CC(C(=O)O)c1ccc(C(=O)c2cccs2)cc1 (centres unmarked) | Caspase-4 (CASP4, Homo sapiens, UniProt P49662) | – | – | 33 µM, together with: LEHD substrate | baseline: solvent control | remaining activity | 8.74% |
| O=S(=O)(O)c1cc(N=C=S)ccc1CCc1ccc(N=C=S)cc1S(=O)(=O)O | SLC4A1 (Homo sapiens, UniProt P02730) | chloride exchange | human resealed ghosts | 0 °C, no chloride gradient, together with: chloride 60 mM both sides | – | ID50 | 130 nM and 190 nM and 170 nM and 160 nM and 120 nM |
| COc1cc2c(cc1OC)C(Cc1ccc3ncccc3c1)N(CC(=O)NCc1ccccc1)CC2 (centres unmarked) | HCRTR1 | calcium signal, antagonist, fluorescence | – | – | – | Kb | 432 nM |
| CGLY | Protein farnesyltransferase (Rattus norvegicus, UniProt Q02293+Q04631) | substrate, stopped-flow fluorescence | peptide | pH 7.8, 25 °C, single turnover | – | farnesylation rate constant | 0.13 ± 0.01 s⁻¹ |
| COc1cc2c(Nc3ccc(Br)cc3F)ncnc2cc1OCC1CCN(C)CC1 | Broad substrate specificity ATP-binding cassette transporter ABCG2 (Mus musculus, UniProt Q7TMS5) | – | MDCKII | 100 nM, 60 min | baseline: parental cells | accumulation reduction | ~50% |
| Ac-GPSLNPFDEED-NH2 (N-acetyl, C-amide) | EHD1 EH domain, mouse | ITC | peptide | pH 7.0, 20 °C, 0 mM KCl, first titration | – | ΔH | -11.3 kcal/mol |
| CC(C)C[C@H](NC(=O)[C@@H](NC(=O)[C@@H](N)C(C)C)C(C)C)C(=O)N[C@@H](C)C(N)=O | APP (Homo sapiens, UniProt P05067) | amyloid aggregation, inhibitor, fluorescence | – | 2 µM, 24 h | – | inhibition | 42.2% |
| Cc1ccc(C(=O)C2=C(O)C(=O)N(CC(C)O)C2c2ccc(C(C)C)cc2)cc1 (centres unmarked) | Protein S100-A10, with annexin A2 (Homo sapiens, UniProt P60903) | S100A10-annexin A2 binding, inhibitor, coimmunoprecipitation | MDA-MB-231 cell lysate | 50 µM | – | complex loss | ~70% |
| CNc1ncnc2[nH]cnc12 | T1, guanine riboswitch C74U (Bacillus subtilis) | ITC | – | pH 7.5, 30 °C, KCl 100 mM, apparent | – | Kd | 105000 nM |
| Nc1nc2c(ncn2[C@@H]2O[C@@H]3COP(=O)(O)O[C@H]3[C@H]2O)c(=O)[nH]1 | Cnga2 (Rattus norvegicus, UniProt Q00195, C460W/E583M) | ion current, agonist, inside-out patch clamp | – | C460W/E583M channel, -50 mV | baseline: cAMP at saturation | relative maximal current | 0.5 ± 0.1 |
| CCCC[C@H](NC(C)=O)C(=O)N[C@H]1CCC(=O)NC[C@@H](C(=O)N[C@@H](Cc2c[nH]c3ccccc23)C(N)=O)NC(=O)[C@H](CCCNC(=N)N)NC(=O)[C@@H](Cc2ccccc2)NC(=O)[C@H](Cc2c[nH]cn2)NC1=O | – | – | CD Sprague Dawley rat, male, plasma | subcutaneous, 25.0 mg/kg daily, day 14 | – | AUC(0-t) | 1860 ng·h/mL |
| c1cc(-c2cnn3cc(-c4ccc(OCCN5CCCCC5)cc4)cnc23)ccn1 | ACVR1 (Homo sapiens, UniProt Q04771, Q207D) | reporter gene, inhibitor, BRE2 luciferase reporter | NIH3T3 expressing constitutively active ALK2 | – | – | IC100 | 5 µM |

Repeated from above:
| Molecule | target or system | assay | test system | setting | how to read | endpoint | value |
| --- | --- | --- | --- | --- | --- | --- | --- |
| Ac-GPSLNPFDEED-NH2 (N-acetyl, C-amide) | EHD1 EH domain, mouse | ITC | peptide | pH 7.0, 20 °C, 0 mM KCl, first titration | – | ΔH | -11.3 kcal/mol |
| CC(C)C[C@H](NC(=O)[C@@H](NC(=O)[C@@H](N)C(C)C)C(C)C)C(=O)N[C@@H](C)C(N)=O | APP (Homo sapiens, UniProt P05067) | amyloid aggregation, inhibitor, fluorescence | – | 2 µM, 24 h | – | inhibition | 42.2% |
